Published values from different studies.
Lines come from different studies, so protocols differ. “And” joins repeats or separate records; there may be more than shown. Numbers after ± are the reported error.
CYP1B1: Cytochrome P450 1B1 (CYP1B1, Homo sapiens, UniProt Q16678)
methionine aminopeptidase: methionine aminopeptidase (Acinetobacter baumannii, UniProt V5VCW7)

Substance | target | test | system | conditions | Kd
CC1=C[C@H](O)CC(C)(C)[C@H]1/C=C/C(C)=C/C=C/C(C)=C/C=C/C=C(C)/C=C/C=C(C)/C=C/C1=C(C)C[C@@H](O)CC1(C)C | Glutathione S-transferase P (GSTP1, Homo sapiens, UniProt P09211) | binding, SPR |  |  | 1.33 µM
CC(C)=CCC[C@@H](C)[C@H]1CC[C@@]2(C)C3=C(CC[C@]12C)[C@@]1(C)CC[C@H](O)C[C@@H]1CC3 | Sterol 14-alpha demethylase (Acanthamoeba castellanii, UniProt L8GJB3) | sterol binding, spectral titration |  | 40% w/v HPCD | 12 ± 2 µM
c1c[nH]cn1 | Cytochrome c oxidase subunit 2 (cbaB, Thermus thermophilus, UniProt Q5SJ80, N150T/Q151P/del152-156/Q158P/N159F) | UV-Vis absorption titration |  | pH 7.0, 298 K, Cu(II) form | 2910 ± 50 µM
CC(=O)N[C@@H](CC(C)C)C(=O)N[C@@H](CCCCN)C(=O)N[C@@H](CCCCN)C(=O)N[C@@H](Cc1c[nH]c2ccccc12)C(=O)N[C@@H](CC(C)C)C(=O)N[C@@H](CCCCN)C(=O)N[C@@H](CC(C)C)C(=O)N[C@@H](CC(C)C)C(=O)N[C@@H](CCCCN)C(=O)N[C@@H](CCCCN)C(=O)N[C@@H](CC(C)C)C(=O)N[C@@H](CC(C)C)C(=O)N[C@@H](CCCCN)C(=O)N[C@@H](CC(C)C)C(=O)N[C@@H](C)C(=O)NCC(N)=O | HCV IRES domain IV hairpin | competitive fluorescence anisotropy |  | pH 7.4, 20 °C, with: rhodamine-Rev peptide | 0.0033 ± 0.0003 µM
phosphatidylinositol 4-phosphate | PFE0165w (Plasmodium falciparum, UniProt Q8I467) | tryptophan fluorescence | Plasmodium falciparum, POPC vesicles 10% phosphoinositide | 25 °C | 47 µM
CC#Cc1cc2ccccc2c2ccccc12 | CYP1B1 | binding, fluorescence |  | pH 7.4 | < 2.5 µM and 1.6 µM
O=C1C2CC3CC(C2)CC1C3 | Camphor 5-monooxygenase (camC, Pseudomonas putida, UniProt P00183, C335A) | site I binding, temperature-jump relaxation, fast phase |  |  | 2.7 ± 1.6 µM
CC[C@H](C)[C@H](NC(=O)[C@H](CCC(=O)O)NC(=O)[C@@H](NC(=O)CCCC[C@@H]1SC[C@@H]2NC(=O)N[C@@H]21)[C@@H](C)O)C(=O)N[C@H](C(=O)N[C@@H](CC(N)=O)C(=O)N1CCC[C@H]1C(=O)N[C@@H](CC(N)=O)C(=O)N[C@@H](Cc1ccc(OP(=O)(O)O)cc1)C(=O)N[C@@H](CCSC)C(=O)NCC(=O)N[C@H](C(=O)NCC(=O)N1CCC[C@H]1C(=O)O)C(C)C)[C@@H](C)CC | Docking protein 2, PTB domain (DOK2, Homo sapiens, UniProt O60496) | SPR |  | 37 °C, high peptide density | > 30 µM
Nc1ncnc2c1ncn2[C@@H]1O[C@H](COP(=O)(O)OP(=O)(O)OP(=O)(O)OC[C@H]2O[C@@H](n3cnc4c(N)ncnc43)[C@H](O)[C@@H]2O)[C@@H](O)[C@H]1O | guaB (Bacillus subtilis, UniProt P21879) |  |  |  | 62 ± 10.9 µM
OCc1ccc(-c2nn(Cc3ccccc3)c3ccccc23)o1 | soluble guanylate cyclase beta subunit, N-terminal fragment (Manduca sexta, UniProt O77106) | binding |  |  | 1.1 ± 0.3 µM
N=C(N)c1ccc(NCCCCCNc2ccc(C(=N)N)cc2)cc1 | CTG·CAG repeat hairpin DNA | fluorescence titration |  | 11 CTG·CAG repeats | 4.3 ± 1 µM
N#Cc1ccc(/C=C/C(=O)O)cc1 | Soluble acetylcholine receptor (Aplysia californica, UniProt Q8WSF8) | binding, scintillation proximity |  | with: 20 nM [3H]epibatidine | 2.37 µM
[N-]=[N+]=Nc1ccc[n+]([C@@H]2O[C@H](COP(=O)([O-])OP(=O)(O)OC[C@H]3O[C@@H](n4cnc5c(N)ncnc54)[C@H](O)[C@@H]3O)[C@@H](O)[C@H]2O)c1 | FDH1 (Candida boidinii, UniProt O13437) | isothermal titration calorimetry |  | pH 7.5, with: azide | 8.2 µM
[Mn+2] | methionine aminopeptidase | metal binding, activator, activity titration | ATCC 17978 | divalent metal ion Kd, with: Met-AMC substrate | 0.33 µM
CSCC1NC(c2c[nH]c3c(N)ncnc23)[C@@H](O)[C@H]1O (stereo partly shown) | S-methyl-5'-thioadenosine phosphorylase (MTAP, Homo sapiens, UniProt Q13126) | binding, isothermal titration calorimetry |  | pH 7.4, 25 °C, apo enzyme | 0.07 ± 0.01 µM
O=C(O)COc1ccccc1 | PIN8 (Arabidopsis thaliana, UniProt Q9LFP6) | cell-free assay |  |  | ~500 µM
Cc1cc2ccccc2c2ccc3ccccc3c12 | CYP1B1 | binding, fluorescence |  | pH 7.4 | < 2.5 µM and 1.9 µM
CC(C)C[C@@H]1NC(=O)[C@H](C(C)C)NC(=O)[C@H](C)NC(=O)[C@@H](N)CSSC[C@@H](C(=O)NCC(=O)NCC(=O)NCC(=O)NCC(=O)N[C@@H](CO)C(=O)N2CCC[C@H]2C(=O)N[C@@H](C)C(=O)N2CCC[C@H]2C(=O)N[C@@H](C)C(=O)N[C@@H](CCCCN)C(=O)O)NC(=O)[C@H](CCC(N)=O)NC(=O)[C@H](CCC(=O)O)NC(=O)[C@H](CCC(=O)O)NC(=O)[C@H](CCCCN)NC(=O)[C@@H]2CCCN2C(=O)[C@H](CC(C)C)NC(=O)CNC(=O)[C@H](CO)NC1=O | sapA (Haemophilus influenzae, UniProt Q4QL73) | binding, SPR |  | 25 °C, with: immobilised oxidised defensin loop peptide | 0.0172 µM
TAMRA-ATP | mutS (Escherichia coli, UniProt P23909) | binding, fluorescence anisotropy |  | pH 7.5, room temperature, labelled ATP analogue, no DNA, high-affinity site, with: 10 mM MgCl2 | 0.034 ± 0.002 µM
[Co+2] | methionine aminopeptidase | metal binding, activator, activity titration | ATCC 17978 | divalent metal ion Kd, with: Met-AMC substrate | 0.39 µM
[Cl-].[Cl-].[Zn+2] | Genome polyprotein, NS3 helicase domain (Hepatitis C virus genotype 1b, UniProt Q9WMX2) | binding, FRET |  | pH 6.25, with: 2 µM mantADP-BeF3 | 90 µM
CC(=O)N[C@@H](CO)C(=O)N[C@H]1CSSC[C@@H](C(=O)NCC(=O)N[C@@H](CO)C(=O)NCC(=O)N[C@@H](CO)C(=O)N[C@@H](CC(=O)O)C(=O)N[C@@H](Cc2ccc(O)cc2)C(=O)N[C@@H](CCCCN)C(=O)N[C@@H](CC(=O)O)C(=O)N[C@@H](CC(=O)O)C(=O)N[C@@H](CC(=O)O)C(=O)N[C@@H](CC(=O)O)C(=O)N[C@@H](CCCCN)C(N)=O)NC(=O)[C@H](Cc2ccccc2)NC(=O)[C@@H]2CCCN2C(=O)[C@H](Cc2c[nH]c3ccccc23)NC(=O)[C@H](CC(C)C)NC(=O)[C@H](CC(C)C)NC(=O)[C@H](CCC(N)=O)NC(=O)[C@H](Cc2ccccc2)NC(=O)[C@H](C)NC(=O)[C@H](CCCNC(=N)N)NC(=O)[C@H](Cc2ccccc2)NC1=O | Gastric inhibitory polypeptide receptor, extracellular domain (GIPR, Homo sapiens, UniProt P48546) | binding, biolayer interferometry |  |  | 0.184 µM
NC(=O)C1=CN([C@@H]2O[C@H](COP(=O)(O)OP(=O)(O)OC[C@H]3O[C@@H](n4cnc5c(N)ncnc54)[C@H](OP(=O)(O)O)[C@@H]3O)[C@@H](O)[C@H]2O)C=CC1 | Kynurenine 3-monooxygenase (Pseudomonas fluorescens, UniProt Q84HF5) | fluorescence polarization displacement |  | pH 7.0, with: 30 nM fluorescent probe | 152 ± 80 µM
CC(=O)N[C@@H](CC(C)C)C(=O)N[C@@H](CCCCN)C(=O)N[C@@H](CCCCN)C(=O)N[C@@H](CC(C)C)C(=O)N[C@@H](CC(C)C)C(=O)N[C@@H](CCCCN)C(=O)N[C@@H](Cc1c[nH]c2ccccc12)C(=O)N[C@@H](CC(C)C)C(=O)N[C@@H](CCCCN)C(=O)N[C@@H](CCCCN)C(=O)N[C@@H](CC(C)C)C(=O)N[C@@H](CC(C)C)C(=O)N[C@@H](CCCCN)C(=O)N[C@@H](CC(C)C)C(=O)N[C@@H](C)C(=O)NCC(N)=O | HCV IRES domain IV hairpin | competitive fluorescence anisotropy |  | pH 7.4, 20 °C, with: rhodamine-Rev peptide | 0.00087 ± 5e-05 µM
Nc1ncnc2c1ncn2[C@@H]1O[C@H](COP(=O)(O)OP(=O)(O)OP(=O)(O)O)[C@@H](O)[C@H]1O | Chemotaxis protein CheA (cheA, Thermotoga maritima, UniProt Q56310) | competitor, TNP-nucleotide competition binding |  | 4 °C, second binding site, with: TNP-compound, 0.6 µM CheA dimer, Mg2+ | ~5000 µM and 5000 µM

For quick reference, copied from above:
Substance | target | test | system | conditions | Kd
N#Cc1ccc(/C=C/C(=O)O)cc1 | Soluble acetylcholine receptor (Aplysia californica, UniProt Q8WSF8) | binding, scintillation proximity |  | with: 20 nM [3H]epibatidine | 2.37 µM
[N-]=[N+]=Nc1ccc[n+]([C@@H]2O[C@H](COP(=O)([O-])OP(=O)(O)OC[C@H]3O[C@@H](n4cnc5c(N)ncnc54)[C@H](O)[C@@H]3O)[C@@H](O)[C@H]2O)c1 | FDH1 (Candida boidinii, UniProt O13437) | isothermal titration calorimetry |  | pH 7.5, with: azide | 8.2 µM
